Published values pooled from the literature.
Protocols differ between the studies behind these lines. ± gives the spread as reported.

OC[C@H]1O[C@@H](c2cc(Cc3ccc(C4CC4)cc3)c(Cl)c3c2CCO3)[C@H](O)[C@@H](O)[C@@H]1O — Cmax (healthy Korean adults, fasted, plasma; oral, 0.3 mg single dose, fixed-dose combination tablet, together with: co-administered drug 50 mg): 4.74 ± 1.2 ng/mL
CNC(=O)c1cc(Oc2ccc(NC(=O)Nc3ccc(Cl)c(C(F)(F)F)c3)cc2)cc[n+]1[O-] — Cmax (patients, plasma; oral, 400 mg twice daily, steady state, without rifampin, geometric mean): 920 ng/mL
O=C(O)c1cc(O)c(O)c(O)c1 — Cmax (broiler chickens, serum; oral, in feed, 2000 mg/kg feed, 24 h, wheat diet, no tannins): 350 ± 90 nM
O=C(c1cccnc1-c1ccncc1)N1CCC(O)(Cc2ccccc2)CC1 — Cmax (healthy Japanese adults, plasma; oral, 200 mg twice daily, day 14): 980 ng/mL
COc1c(O)cc(C(=O)O)cc1O — Cmax (broiler chickens, serum; oral, in feed, 2000 mg/kg feed, 24 h, wheat diet, no tannins): 100 ± 40 nM
CCNC(=O)[C@@H]1CCCN1C(=O)[C@H](CCCNC(=N)N)NC(=O)[C@H](CC(C)C)NC(=O)[C@@H](CC(C)C)NC(=O)[C@H](Cc1ccc(O)cc1)NC(=O)[C@H](CO)NC(=O)[C@H](Cc1c[nH]c2ccccc12)NC(=O)[C@H](Cc1c[nH]cn1)NC(=O)[C@@H]1CCC(=O)N1 — Cmax (healthy premenopausal women, plasma; oral, 4 mg twice daily, day 1): 4.1 ± 5.1 ng/mL
C[C@@H]1CCO[C@H]2Cn3cc(C(=O)NCc4ccc(F)cc4F)c(=O)c(O)c3C(=O)N12 — Cmax (population PK, post-hoc; children, 10 to <14 kg, plasma; oral, 20 mg dispersible tablet, steady state, geometric mean): 5580 ng/mL
CC[C@H](C)CCCCC(=O)N[C@@H](CCN)C(=O)N[C@H](C(=O)N[C@@H](CCN)C(=O)N[C@H]1CCNC(=O)[C@H]([C@@H](C)O)NC(=O)[C@H](CCN)NC(=O)[C@H](CCN)NC(=O)[C@H](CC(C)C)NC(=O)[C@@H](Cc2ccccc2)NC(=O)[C@H](CCN)NC1=O)[C@@H](C)O — Cmax (ESKD on long-term intermittent haemodialysis, plasma; intravenous infusion, 0.75 mg/kg, geometric least squares mean): 2780 ng/mL
C[C@@H](N)C1CCN(S(=O)(=O)c2cccc3cnccc23)CC1 — Cmax (healthy volunteers, fasted, plasma; oral, 150 mg): 34.9 ng/mL
CCCCC1=NC2(CCCC2)C(=O)N1Cc1ccc(-c2ccccc2S(=O)(=O)Nc2noc(C)c2C)c(COCC)c1 — Cmax (healthy adult volunteers, plasma; oral, 50 mg, single dose, fasted, crushed tablet): 1390 ng/mL
O=C(Nc1cnccc1Cl)N1CCN(Cc2ccc3c(c2)OC(F)(F)O3)CC1 — Cmax (healthy young men, plasma; oral, 10 mg once daily, day 1): 63.6 ng/mL
Oc1ccc([C@@H](O)c2cc(-c3ncnc4cc(N5CCOCC5)ccc34)c(F)cc2Cl)nn1 — Cmax (geometric mean; healthy volunteers, plasma; oral, 100 mg, fasted tablet): 91.6 ng/mL
COC(=O)c1ccc2c(c1)NC(=O)/C2=C(\Nc1ccc(N(C)C(=O)CN2CCN(C)CC2)cc1)c1ccccc1 — Cmax (healthy volunteers, plasma; oral, 150 mg, together with: pirfenidone): 34.2 ng/mL
CCc1nc(C(N)=O)c(Nc2ccc(N3CCC(N4CCN(C)CC4)CC3)c(OC)c2)nc1NC1CCOCC1 — Cmax (patients, plasma; oral, 200 mg once daily, cycle 1 day 15, median): 1460 ng/mL
CN[C@H](CC(C)C)C(=O)N[C@H]1C(=O)N[C@@H](CC(N)=O)C(=O)N[C@H]2C(=O)N[C@H]3C(=O)N[C@H](C(=O)N[C@H](C(=O)O)c4cc(O)cc(O)c4-c4cc3ccc4O)[C@H](O)c3ccc(c(Cl)c3)Oc3cc2cc(c3O[C@@H]2O[C@H](CO)[C@@H](O)[C@H](O)[C@H]2O[C@H]2C[C@](C)(N)[C@H](O)[C@H](C)O2)Oc2ccc(cc2Cl)[C@H]1O — Cmax (guinea pig, serum; intraperitoneal, 15 mg/kg single): 33000 ng/mL
CC[C@H](Nc1ncnc2[nH]cnc12)c1oc2ccccc2c(=O)c1-c1cccc(F)c1 — Cmax (patients, Cohort-2, plasma; oral, 600 mg twice daily, together with: romidepsin 12 mg/m2): 2150 ± 749 ng/mL
CC(C)c1nc(N(C)S(C)(=O)=O)nc(-c2ccc(F)cc2)c1/C=C/[C@@H](O)C[C@@H](O)CC(=O)O — Cmax (healthy volunteers, plasma; oral, 10 mg, day 8, BCRP probe, together with: momelotinib, days 4-8, 200 mg, once daily): 10.5 ng/mL
C=CC(=O)NC1CCN(c2ncc3ncnc(Nc4ccc(Oc5ccc6c(c5)ncn6C)c(C)c4)c3n2)CC1 — Cmax (healthy male volunteers, plasma; oral, 60 mg, unlabelled tablet): 994 nM
N[C@@H](Cc1ccc(O)c(O)c1)C(=O)O — Cmax (Parkinson's disease patients, plasma; oral, low carbidopa Cmax subgroup (<9 µmol/L), median): 5770 nM
N[C@@H]1c2ccccc2OC12CCN(c1cnc3c(N4CCCc5ncccc54)n[nH]c3n1)CC2 — Cmax (advanced metastatic solid tumour patients, plasma; oral, 20 mg once daily, cycle 1 day 15, geometric mean): 451 ng/mL
CC(=O)N[C@H]1CC[C@H](NC(=O)CN2CCN(c3nncc(-c4ccc(C)cc4)n3)CC2)CC1 — Cmax (women, plasma; oral, 100 mg single dose, study): 1490 ng/mL
C[C@H]1[C@H](OC(=O)CCC(=O)O)O[C@@H]2O[C@@]3(C)CC[C@H]4[C@H](C)CC[C@@H]1[C@@]24OO3 — Cmax (healthy volunteers, plasma; oral, dose not given, fixed-dose combination): 277 ng/mL
C[C@H](NC(=O)/C(C#N)=C/c1cccc(Br)n1)c1ccccc1 — Cmax (LC-MS/MS; patients, plasma; oral, 1 mg/kg, cycle 1 day 1): 32.6 ng/mL
CCc1nc2c(C)cc(N3CCN(CC(=O)N4CC(O)C4)CC3)cn2c1N(C)c1nc(-c2ccc(F)cc2)c(C#N)s1 — Cmax (healthy volunteers, fed, plasma; oral, 600 mg single dose, day 1, tablet): 7500 ng/mL
CCNC(=O)[C@@H]1CCCN1C(=O)[C@H](CCCNC(=N)N)NC(=O)[C@H](CC(C)C)NC(=O)[C@@H](CC(C)C)NC(=O)[C@H](Cc1ccc(O)cc1)NC(=O)[C@H](CO)NC(=O)[C@H](Cc1c[nH]c2ccccc12)NC(=O)[C@H](Cc1c[nH]cn1)NC(=O)[C@@H]1CCC(=O)N1 — Cmax (healthy female volunteers; subcutaneous, 1 mg single dose): 59.4 ± 9.1 ng/mL
CCCCCCCOc1ccc(CCC(N)(CO)CO)cc1C(F)(F)F.Cl — Cmax (healthy men, plasma; oral, 0.25 mg, day 1): 0.15 ng/mL
C=C(F)C(=O)N1CCN(c2nc(OC[C@@H]3CCCN3C)nc3c2CCN(c2cccc4cccc(Cl)c24)C3)C[C@@H]1CC#N — Cmax (healthy volunteers, plasma; 600 mg): 551 ng/mL
COc1nnc2ccc(N3CCC(c4ccc(OCCN5CCN(C)C(=O)[C@H]5C)cc4)CC3)nn12 — Cmax (patients, plasma; oral, 15 mg twice daily, single dose, monotherapy): 114 nM
C[C@H]1[C@H]2N(C(=O)CN(C)N2C(=O)NCc2ccccc2)[C@@H](Cc2ccc(OP(=O)(O)O)cc2)C(=O)N1Cc1cccc2cccnc12 — Cmax (patients, plasma; intravenous infusion, 140 mg/m2 over 4 h, mean): 888 ng/mL
CS(=O)(=O)c1ccc([C@@H](O)[C@@H](CF)NC(=O)C(Cl)Cl)cc1 — Cmax (chicken (Arbor Acres), plasma; oral, 20 mg/kg, together with: quercetin 20 mg/kg pretreatment): 10000 ± 1230 ng/mL
CC(C)(CO)c1cc2cc(NC(=O)C3(c4ccc5c(c4)OC(F)(F)O5)CC3)c(F)cc2n1C[C@@H](O)CO — Cmax (human, plasma; oral, standard ETI dose): 5500 ng/mL
OC[C@H]1O[C@@H](c2ccc(F)c(Cc3cc4ccccc4s3)c2)[C@H](O)[C@@H](O)[C@@H]1O — Cmax (Japanese type 2 diabetes patients, plasma; oral, 100 mg/day, day 14): 2680 ± 346 ng/mL
CCCCCCCCCCCCCCCC(=O)N[C@@H](CCC(=O)NCCCC[C@@H]1NC(=O)[C@H]([C@@H](C)CC)NC(=O)[C@@H](NC(=O)[C@@H]2CCCN2C(=O)[C@H](Cc2ccccc2)NC(=O)[C@H](Cc2c[nH]cn2)NC(=O)[C@@H](NC(=O)[C@H](CC(=O)O)NC(=O)CC(C)C)[C@@H](C)O)CSSC[C@@H](C(=O)N[C@@H](CCCCN)C(N)=O)NC(=O)CNC(=O)[C@H](CCCCN)NC(=O)[C@H](CO)NC(=O)[C@H](CCCNC(=N)N)NC(=O)[C@@H]2CCCN2C(=O)[C@H](CCC(=O)O)NC(=O)[C@H](Cc2ccccc2)NC1=O)C(=O)O — Cmax (healthy volunteers, plasma; subcutaneous, 10 mg single, lyophilised formulation): 261 ± 64.4 ng/mL
C[C@@](Cc1ccc(O)c(O)c1)(NN)C(=O)O — Cmax (Parkinson's disease patients, plasma; oral, high levodopa AUC subgroup (11.5 µmol·h/L), median): 340 nM
O=C(c1ccccc1)c1ccc2n1CCC2C(=O)O (stereo not drawn) — Cmax (New Zealand White rabbit, male, plasma; oral, 10 mg/kg drug equivalent): 10900 ± 480 ng/mL
CC(=O)Nc1ccc(C[C@H](NC(=O)[C@H](CO)NC(=O)[C@@H](Cc2cccnc2)NC(=O)[C@@H](Cc2ccc(Cl)cc2)NC(=O)[C@@H](Cc2ccc3ccccc3c2)NC(C)=O)C(=O)N[C@H](Cc2ccc(NC(C)=O)cc2)C(=O)N[C@@H](CC(C)C)C(=O)N[C@@H](CCCCNC(C)C)C(=O)N2CCC[C@H]2C(=O)N[C@H](C)C(N)=O)cc1 — Cmax (healthy men, fasted, serum; oral, 40 mg single dose): 17.1 ± 12.7 ng/mL

Repeated from above:
CCNC(=O)[C@@H]1CCCN1C(=O)[C@H](CCCNC(=N)N)NC(=O)[C@H](CC(C)C)NC(=O)[C@@H](CC(C)C)NC(=O)[C@H](Cc1ccc(O)cc1)NC(=O)[C@H](CO)NC(=O)[C@H](Cc1c[nH]c2ccccc12)NC(=O)[C@H](Cc1c[nH]cn1)NC(=O)[C@@H]1CCC(=O)N1 — Cmax (healthy female volunteers; subcutaneous, 1 mg single dose): 59.4 ± 9.1 ng/mL
CCCCCCCOc1ccc(CCC(N)(CO)CO)cc1C(F)(F)F.Cl — Cmax (healthy men, plasma; oral, 0.25 mg, day 1): 0.15 ng/mL
C=C(F)C(=O)N1CCN(c2nc(OC[C@@H]3CCCN3C)nc3c2CCN(c2cccc4cccc(Cl)c24)C3)C[C@@H]1CC#N — Cmax (healthy volunteers, plasma; 600 mg): 551 ng/mL
COc1nnc2ccc(N3CCC(c4ccc(OCCN5CCN(C)C(=O)[C@H]5C)cc4)CC3)nn12 — Cmax (patients, plasma; oral, 15 mg twice daily, single dose, monotherapy): 114 nM
